Experimental data collected from several papers.
Organism: Staphylococcus aureus

| Compound | assay | test system | setting | MIC |
| --- | --- | --- | --- | --- |
| CC[C@H](C)[C@H](NC(=O)[C@H](CC(C)C)NC(=O)[C@@H](NC(=O)[C@H](Cc1ccc(O)cc1)NC(=O)[C@H](CO)NC(=O)CNC(=O)[C@H](CCCNC(=N)N)NC(=O)[C@H](CCCNC(=N)N)NC(=O)[C@H](CCCNC(=N)N)NC(=O)[C@@H]1CCCN1C(=O)[C@H](CCCCN)NC(=O)[C@H](Cc1c[nH]c2ccccc12)NC(=O)[C@@H](NC(=O)[C@H](Cc1c[nH]c2ccccc12)NC(=O)[C@H](CCCCN)NC(=O)[C@H](CCCNC(=N)N)NC(=O)[C@H](CCCNC(=N)N)NC(=O)[C@@H]1CCCN1C(=O)[C@H](CO)NC(=O)[C@H](CCCNC(=N)N)NC(=O)[C@H](CO)NC(=O)[C@H](CCCNC(=N)N)NC(=O)[C@@H](N)CCCNC(=N)N)[C@@H](C)O)[C@@H](C)O)C(=O)N[C@@H](CO)C(=O)N[C@@H](CCC(N)=O)C(=O)NCC(=O)NCC(=O)N[C@@H](CC(N)=O)C(=O)O | broth microdilution | MRSA CMCC 43300 | – | 21.8 µM |
| CC[C@H](C)[C@H](NC(=O)[C@H](Cc1c[nH]c2ccccc12)NC(=O)[C@@H](NC(=O)[C@@H](NC(=O)[C@@H](NC(=O)[C@H](CCCNC(=N)N)NC(=O)[C@@H](N)CCCNC(=N)N)[C@@H](C)CC)[C@@H](C)O)[C@@H](C)CC)C(=O)N[C@H](C(=O)N[C@H](C(=O)N[C@@H](CCCNC(=N)N)C(=O)N[C@@H](CCCNC(=N)N)C(N)=O)[C@@H](C)CC)[C@@H](C)O | – | MRSA 43300 | 24 h, 37 °C | 128 µM |
| O=c1ncn2nc(Sc3ccc(F)cc3F)ccc2c1-c1c(Cl)cccc1Cl | – | NCTC 8325 | – | > 30 µM |
| CC[C@H](C)[C@H](NC(=O)[C@H](CC(C)C)NC(=O)[C@H](CCCNC(=N)N)NC(=O)[C@@H](N)CCCNC(=N)N)C(=O)N[C@@H](CCCNC(=N)N)C(=O)N[C@H](C(=O)N[C@@H](CCCCN)C(=O)N[C@H](C(=O)NCC(=O)N1CCC[C@H]1C(=O)N[C@H](C(=O)N[C@H](C(=O)N[C@@H](Cc1ccc(O)cc1)C(=O)N[C@@H](CCCCN)C(=O)N[C@@H](Cc1ccc(O)cc1)C(=O)N[C@@H](Cc1ccccc1)C(=O)N[C@@H](CCCCN)C(=O)N[C@@H](CCCCN)C(=O)N[C@@H](CCC(N)=O)C(=O)N[C@@H](CC(C)C)C(=O)N[C@@H](CC(C)C)C(=O)N[C@@H](CCCCN)C(=O)N[C@@H](CCCCN)C(N)=O)[C@@H](C)CC)[C@@H](C)CC)[C@@H](C)O)[C@@H](C)O | – | CCARM 3089, methicillin-resistant, Mueller-Hinton broth | 24 h | > 128 µM |
| CN1C(=O)Cc2ccc(F)c(CCNC[C@H]3CN(c4ccc5c(n4)NC(=O)CO5)C(=O)O3)c21 | – | ATCC 29213 | – | 0.03 µg/mL |
| CC[C@H](C)[C@H](NC(=O)[C@H](CCCCN)NC(=O)[C@@H]1CCCN1C(=O)[C@H](CCCNC(=N)N)NC(=O)[C@H](Cc1ccc(O)cc1)NC(=O)[C@H](CCCNC(=N)N)NC(=O)[C@H](CCCNC(=N)N)NC(=O)[C@@H](NC(=O)[C@H](CCCNC(=N)N)NC(=O)[C@H](CCCNC(=N)N)NC(=O)[C@H](CC(C)C)NC(=O)[C@H](Cc1ccccc1)NC(=O)[C@H](CCCNC(=N)N)NC(=O)[C@H](CO)NC(=O)[C@H](Cc1ccccc1)NC(=O)[C@@H](N)CCCNC(=N)N)C(C)C)C(=O)N[C@@H](CO)C(=O)N[C@@H](Cc1ccccc1)C(=O)N[C@@H](CC(N)=O)C(=O)N[C@@H](CC(C)C)C(=O)N[C@@H](CCC(=O)O)C(=O)N1CCC[C@H]1C(=O)N[C@@H](Cc1ccccc1)C(=O)N[C@@H](Cc1ccccc1)C(=O)N[C@@H](CCCCN)C(=O)N[C@@H](Cc1ccccc1)C(=O)O | broth microdilution | ATCC 29213, Mueller-Hinton broth | 16 to 20 h, 37 °C | 2.54 µM |
| CC[C@H](C)[C@H](N)C(=O)N[C@@H](CC(C)C)C(=O)NCC(=O)N[C@@H](CCCNC(=N)N)C(=O)N[C@H](C(=O)N[C@@H](Cc1c[nH]c2ccccc12)C(=O)N[C@@H](CCCCN)C(=O)NCC(=O)N[C@H](C(=O)N[C@@H](CCCCN)C(=O)N[C@@H](CC(=O)O)C(=O)N[C@H](C(=O)N[C@@H](CC(C)C)C(N)=O)[C@@H](C)CC)[C@@H](C)CC)[C@@H](C)CC | broth microdilution | MRSA ATCC 33591, Mueller-Hinton broth | 16 h, 37 °C | 6.25 µM |
| CC[C@H](C)[C@H](NC(=O)[C@H](Cc1ccccc1)NC(=O)[C@@H](NC(=O)[C@H](Cc1c[nH]c2ccccc12)NC(=O)[C@@H]1CCCN1C(=O)[C@@H](NC(=O)[C@H](C)N)[C@@H](C)CC)[C@@H](C)CC)C(=O)N[C@@H](Cc1ccccc1)C(=O)N[C@@H](CCCNC(=N)N)C(=O)N[C@@H](CC(C)C)C(=O)N[C@@H](CC(C)C)C(=O)N[C@@H](CCCNC(=N)N)C(=O)N[C@@H](CCCCN)C(=O)NCC(N)=O | broth microdilution | ATCC 19609 | 18 h, 37 °C | 1.88 µM |
| CC[C@H](C)[C@H](NC(=O)[C@H](CCCCN)NC(=O)[C@H](CCCCN)NC(=O)CNC(=O)[C@H](CCCCN)NC(=O)[C@H](CC(C)C)NC(=O)[C@H](CCCCN)NC(=O)[C@H](CCCNC(=N)N)NC(=O)[C@@H](NC(=O)[C@H](CC(C)C)NC(=O)[C@H](CCCNC(=N)N)NC(=O)[C@@H](N)CCCNC(=N)N)[C@@H](C)CC)C(=O)N[C@@H](Cc1ccc(O)cc1)C(=O)N[C@@H](CC(C)C)C(=O)N[C@@H](Cc1ccc(O)cc1)C(=O)N[C@@H](Cc1ccccc1)C(=O)N[C@@H](CCCCN)C(=O)N[C@@H](CC(C)C)C(=O)N[C@@H](CCC(N)=O)C(=O)N[C@@H](CC(C)C)C(=O)N[C@@H](CC(C)C)C(=O)N[C@@H](CCCCN)C(=O)N[C@@H](CCCCN)C(N)=O | – | KCTC 1621, Mueller-Hinton broth | added: 4.5 mM KCl | 32 µM |
| CN[C@H](CC(C)C)C(=O)N[C@H]1C(=O)N[C@@H](CC(N)=O)C(=O)N[C@H]2C(=O)N[C@H]3C(=O)N[C@H](C(=O)N[C@H](C(=O)O)c4cc(O)cc(O)c4-c4cc3ccc4O)[C@H](O)c3ccc(c(Cl)c3)Oc3cc2cc(c3O[C@@H]2O[C@H](CO)[C@@H](O)[C@H](O)[C@H]2O[C@H]2C[C@](C)(N)[C@H](O)[C@H](C)O2)Oc2ccc(cc2Cl)[C@H]1O | broth microdilution | COL (MRSA), cation-adjusted Mueller-Hinton broth | – | 2 µg/mL |
| CC[C@H](C)[C@H](NC(=O)[C@H](C)NC(=O)[C@H](CCCNC(=N)N)NC(=O)[C@H](CCCNC(=N)N)NC(=O)[C@@H](N)CCCNC(=N)N)C(=O)N[C@@H](CO)C(=O)NCC(=O)N[C@@H](CO)C(=O)N[C@@H](CC(C)C)C(=O)N[C@H](C(=O)N[C@H](C(=O)N[C@@H](CC(C)C)C(=O)N[C@@H](Cc1ccccc1)C(=O)NCC(=O)N[C@@H](Cc1ccc(O)cc1)C(=O)N[C@@H](CCCNC(=N)N)C(=O)N[C@@H](CCCNC(=N)N)C(=O)N[C@@H](CCCNC(=N)N)C(N)=O)[C@@H](C)O)C(C)C | broth microdilution | ATCC 29213 | highest value reported | 64 µM |
| CC[C@H](C)[C@H](NC(=O)[C@H](CC(C)C)NC(=O)[C@H](CCCNC(=N)N)NC(=O)[C@@H](N)CCCNC(=N)N)C(=O)N[C@@H](CCCNC(=N)N)C(=O)N[C@H](C(=O)N[C@@H](CC(C)C)C(=O)N[C@H](C(=O)NCC(=O)N1CCC[C@H]1C(=O)N[C@H](C(=O)N[C@H](C(=O)N[C@@H](Cc1ccc(O)cc1)C(=O)N[C@@H](CC(C)C)C(=O)N[C@@H](Cc1ccc(O)cc1)C(=O)N[C@@H](Cc1ccccc1)C(=O)N[C@@H](CCCCN)C(=O)N[C@@H](CC(C)C)C(=O)N[C@@H](CCC(N)=O)C(=O)N[C@@H](CC(C)C)C(=O)N[C@@H](CC(C)C)C(=O)N[C@@H](CCCCN)C(=O)N[C@@H](CCCCN)C(N)=O)[C@@H](C)CC)[C@@H](C)CC)[C@@H](C)O)[C@@H](C)O | – | CCARM 3090, methicillin-resistant, Mueller-Hinton broth | 24 h | > 128 µM |
| CN[C@H](CC(C)C)C(=O)N[C@H]1C(=O)N[C@@H](CC(N)=O)C(=O)N[C@H]2C(=O)N[C@H]3C(=O)N[C@H](C(=O)N[C@H](C(=O)O)c4cc(O)cc(O)c4-c4cc3ccc4O)[C@H](O)c3ccc(c(Cl)c3)Oc3cc2cc(c3O[C@@H]2O[C@H](CO)[C@@H](O)[C@H](O)[C@H]2O[C@H]2C[C@](C)(N)[C@H](O)[C@H](C)O2)Oc2ccc(cc2Cl)[C@H]1O | broth microdilution | VISA LIM-2, tryptic soy broth | 20 to 24 h, 37 °C, 0.002% polysorbate 80 | 4 µg/mL |

A few entries again:
| Compound | assay | test system | setting | MIC |
| --- | --- | --- | --- | --- |
| CC[C@H](C)[C@H](N)C(=O)N[C@@H](CC(C)C)C(=O)NCC(=O)N[C@@H](CCCNC(=N)N)C(=O)N[C@H](C(=O)N[C@@H](Cc1c[nH]c2ccccc12)C(=O)N[C@@H](CCCCN)C(=O)NCC(=O)N[C@H](C(=O)N[C@@H](CCCCN)C(=O)N[C@@H](CC(=O)O)C(=O)N[C@H](C(=O)N[C@@H](CC(C)C)C(N)=O)[C@@H](C)CC)[C@@H](C)CC)[C@@H](C)CC | broth microdilution | MRSA ATCC 33591, Mueller-Hinton broth | 16 h, 37 °C | 6.25 µM |
